Measured values pooled from the literature.
Compare with care: the assays were run in different laboratories. ± marks the error that the study gave.
Cell line: MCF7

`COc1ccc(NC(=O)NNC(=O)CSc2nc3ccccc3c(=O)n2-c2ccc(OC)cc2)cc1` gave an IC50 of 93.7 µM (cell growth or viability, MTT).
`C=CCc1ccc(O)c(-c2ccc(O)c(CC=C)c2)c1` has an IC50 of 12.6 µM (cell proliferation, MTS; 24 h, added: temozolomide 250 µM).
For `Cc1ccc(-n2c(SCC(=O)NNC(=O)Nc3c(C)cccc3C)nc3ccccc3c2=O)cc1`, the IC50 was 25.2 µM (cell growth or viability, MTT).
The IC50 of `O=S(=O)(Sc1ccc(F)cc1)c1ccc(F)cc1` is reported as 7.5 µM (cell growth, sulforhodamine B).
For `C#Cc1cccc(Nc2ncnc3cc(OCCOC)c(OCCOC)cc23)c1`, the IC50 was 2.51 µM (cell growth or viability, MTT; 48 h).
The IC50 of `NCCCCCCNc1n[n+]([O-])c2ccccc2[n+]1[O-]` is reported as 150 ± 26 µM (cytotoxicity, MTT; 24 h, normoxia).
`COc1ccc2[nH]cc(CCNC(C)=O)c2c1` gave an IC50 of 27.9 µM (cell survival, MTT; day 9, dosed days 2, 4, 7).
With `CC(C)c1cnn2c(NCc3ccccc3)cc(NCCCCCCN)nc12` the IC50 was 15 µM (immunoblotting; 4 h).
With `N#CC(C(=O)Nc1nnc(NC(=O)c2ccccc2)s1)=C1SC(=O)CN1c1ccccc1` the IC50 was 84.8 µM (cell growth or viability, MTT; 48 h).
With `CC1=NNC(=O)C1=C1Sc2nc3ccc(S(=O)(=O)N4CCCC4)cc3nc2S1` the IC50 was 70.1 ± 3.7 µM (cell growth; 24 h).
The IC50 of `Cc1nc2ccccc2n(CC(=O)Nc2ccc(C(=O)Nc3ccc(O)cc3)cc2)c1=O` is reported as 17.9 µM (cell growth or viability, MTT).
With `[O-][n+]1nc(NCCCCCCNc2n[n+]([O-])c3ccccc3[n+]2[O-])nc2ccccc21` the IC50 was over 30 µM (cytotoxicity, MTT; 10% FBS medium; 6 h + 18 h, hypoxia 3% O2).
`O=C(CSc1nc2ccccc2c(=O)n1-c1ccc(Cl)cc1)NNC(=O)Nc1ccc(F)cc1` has an IC50 of 32.6 µM (cell growth or viability, MTT).
For `NCCCCCCCCNc1n[n+]([O-])c2ccccc2[n+]1[O-]`, the IC50 was 74.3 ± 21.1 µM (cytotoxicity, MTT; 10% FBS medium; 6 h + 18 h, hypoxia 3% O2).
With `COc1ccc(-c2cc(-c3ccc(N(C)C)cc3)c3c(=O)n(C)c(=O)n(C)c3n2)cc1` the IC50 was under 5 µM (cell growth or viability, MTT; 48 h).
`N#CC(=Cc1ccco1)C(=O)Nc1nnc(NC(=O)c2ccccc2)s1` has an IC50 of 28.1 µM (cell growth or viability, MTT; 48 h).
`CC(=O)O[C@H]1C(=O)O[C@@H]2C[C@H]3C(C)=CC(=O)[C@@H](O)[C@]3(C)[C@H]3[C@]4(O)OC[C@]32[C@@H]1[C@@H](C)[C@H]4O` gave an IC50 of 11 ± 1.13 µM (cell viability, MTS; 24 h).
`COc1cc(-c2cc(-c3ccc(Cl)cc3)n(CN3CCOCC3)c(=O)c2C#N)ccc1O` has an IC50 of at least 50 µM (cell growth or viability, MTT).
`NCCCNc1n[n+]([O-])c2ccccc2[n+]1[O-]` has an IC50 of 65.8 ± 2.4 µM (cytotoxicity, MTT; 10% FBS medium; 6 h + 18 h, hypoxia 3% O2).
For `O=S(=O)(Sc1cccc(F)c1)c1cccc(F)c1`, the IC50 was over 10 µM (cell growth, sulforhodamine B).
`O=C(CSc1nc2ccccc2c(=O)n1-c1ccc(Cl)cc1)NNC(=O)Nc1ccc(Cl)cc1` has an IC50 of 36.3 µM (cell growth or viability, MTT).
For `NCCCCCNc1n[n+]([O-])c2ccccc2[n+]1[O-]`, the IC50 was over 76 µM (cytotoxicity, MTT; 10% FBS medium; 6 h + 18 h, hypoxia 3% O2).
`N#Cc1c(-c2ccc(Cl)cc2)c2c(=O)[nH]c(-c3ccco3)nc2n(C2CCCCC2)c1=O` gave an IC50 of 11.2 µM (cell growth or viability, MTT).
With `N#CC(C(=O)Nc1cccc(C(F)(F)F)c1)=C1Sc2nc3ccc(S(=O)(=O)N4CCCC4)cc3nc2S1` the IC50 was at most 8.78 µM (cell growth; 24 h).
For `N#CC(=Cc1cccs1)C(=O)Nc1nnc(NC(=O)c2ccccc2)s1`, the IC50 was 8.02 µM (cell growth or viability, MTT; 48 h).
`COc1cc(/C=C/C(=O)CC(=O)/C=C/c2ccc(O)c(OC)c2)ccc1O` gave an IC50 of 24.8 µg/mL (cell growth or viability, MTT; 48 h).
`COc1ccc(NC(=O)NNC(=O)CSc2nc3ccccc3c(=O)n2-c2ccc(Cl)cc2)cc1` has an IC50 of 43.8 µM (cell growth or viability, MTT).
`N#CC(=Cc1ccc(Cl)cc1)C(=O)Nc1nnc(NC(=O)c2ccccc2)s1` gave an IC50 of 17.7 µM (cell growth or viability, MTT; 48 h).
For `O=S(=O)(Sc1ccccc1F)c1ccccc1F`, the IC50 was over 10 µM (cell growth, sulforhodamine B).
`Cc1ccc(-n2c(SCC(=O)NNC(=O)Nc3ccc(Cl)cc3)nc3ccccc3c2=O)cc1` gave an IC50 of 18.2 µM (cell growth or viability, MTT).
For `O=S(=O)(Sc1ccccc1Br)c1ccccc1Br`, the IC50 was over 10 µM (cell growth, sulforhodamine B).
With `CC(C)(C)c1ccc(CN2CCN(C(c3ccccc3)c3ccc(Cl)cc3)CC2)cc1` (stereo not shown) the IC50 was 31 µM (cell growth; 72 h).
For `N#Cc1c(-c2ccc(Cl)cc2)c2c(=O)[nH]c(-c3ccc(Cl)cc3Cl)nc2n(C2CCCCC2)c1=O`, the IC50 was 0.57 µM (cell growth or viability, MTT).
The IC50 of `[O-][n+]1nc(NCCCCCNc2n[n+]([O-])c3ccccc3[n+]2[O-])nc2ccccc21` is reported as over 30 µM (cytotoxicity, MTT; 24 h, normoxia).
The IC50 of `CCCCCCCCCCCCCC(=O)OC[C@H](COP(=O)([O-])OCC[N+](C)(C)C)OC(=O)CCCCCCCCCCCCC` is reported as over 250 µM (cell viability, MTT; 72 h).
With `CC(=O)c1nn(-c2cccc(C)c2)/c(=N/N=C(\C)c2ccc(NC(=O)c3cccnc3)cc2)s1` the IC50 was 20.5 ± 1.4 µM (cytotoxicity, MTT; 24 h).
For `CC1(C)CC[C@]2(C(=O)O)CC[C@]3(C)C(=CC[C@@H]4[C@@]5(C)CC[C@H](O)C(C)(C)[C@@H]5CC[C@]43C)[C@@H]2C1`, the IC50 was 11 µg/mL (cell growth or viability, resazurin; 96 h).
`C=C(C)[C@@H]1CC[C@]2(C(=O)OCCOCCOCC[P+](c3ccccc3)(c3ccccc3)c3ccccc3)CC[C@]3(C)[C@H](CC[C@@H]4[C@@]5(C)CC[C@H](O)C(C)(C)[C@@H]5CC[C@]43C)[C@@H]12` gave an IC50 of 0.7 to 0.74 µM (cell growth or viability, MTT).
For `CN(C)C/C=C/C(=O)Nc1cc2c(Nc3ccc(F)c(Cl)c3)ncnc2cc1O[C@H]1CCOC1`, the IC50 was 5.1 µM (cell growth or viability, MTT; 48 h).
With `CS(=O)(=O)CCNCc1ccc(-c2ccc3ncnc(Nc4ccc(OCc5cccc(F)c5)c(Cl)c4)c3c2)o1` the IC50 was 22 µM (cell growth or viability, MTT; 72 h).
With `Cc1nc2ccccc2n(CC(=O)Nc2ccc(C(=O)Nc3cccc(Cl)c3)cc2)c1=O` the IC50 was 2.3 µM (cell growth, MTT).
For `COc1ccc(/C=C/C(=O)CC(C)=O)cc1OC`, the IC50 was under 10.6 µM (cell growth or viability, MTT; 72 h).
For `CC(C)c1nc(N(C)S(C)(=O)=O)nc(-c2ccc(F)cc2)c1/C=C/[C@@H](O)C[C@@H](O)CC(=O)O`, the IC50 was 1.49 µM (cell growth, SRB; 72 h).
`Nc1n[n+]([O-])c2ccccc2[n+]1[O-]` has an IC50 of 326 ± 10.8 µM (cytotoxicity, MTT; 24 h, normoxia).
For `Fc1ccccc1SSc1ccccc1F`, the IC50 was over 10 µM (cell growth or viability, SRB).
For `C=CCc1ccc(OCc2nnc(SCC(=O)N3CCCCC3)o2)c(OC)c1`, the IC50 was 173 µM (cell growth or viability, MTT; 72 h).
`N=c1oc2ccccc2cc1C(=O)Nc1nnc(NC(=O)c2ccccc2)s1` has an IC50 of 8.25 µM (cell growth or viability, MTT; 48 h).
`Cc1cc(C)c(C#N)c(OCC(=O)N2CCOCC2)n1` gave an IC50 of 1.62 µM (cell viability, MTT; 48 h).
With `C=CCc1ccc(OCc2nnc(SCC(=O)N3CCOCC3)o2)c(OC)c1` the IC50 was 38.9 µM (cell growth or viability, MTT; 72 h).

Excerpt of the above:
`O=C(CSc1nc2ccccc2c(=O)n1-c1ccc(Cl)cc1)NNC(=O)Nc1ccc(Cl)cc1` has an IC50 of 36.3 µM (cell growth or viability, MTT).
For `NCCCCCNc1n[n+]([O-])c2ccccc2[n+]1[O-]`, the IC50 was over 76 µM (cytotoxicity, MTT; 10% FBS medium; 6 h + 18 h, hypoxia 3% O2).
`N#Cc1c(-c2ccc(Cl)cc2)c2c(=O)[nH]c(-c3ccco3)nc2n(C2CCCCC2)c1=O` gave an IC50 of 11.2 µM (cell growth or viability, MTT).
With `N#CC(C(=O)Nc1cccc(C(F)(F)F)c1)=C1Sc2nc3ccc(S(=O)(=O)N4CCCC4)cc3nc2S1` the IC50 was at most 8.78 µM (cell growth; 24 h).
For `N#CC(=Cc1cccs1)C(=O)Nc1nnc(NC(=O)c2ccccc2)s1`, the IC50 was 8.02 µM (cell growth or viability, MTT; 48 h).
`COc1cc(/C=C/C(=O)CC(=O)/C=C/c2ccc(O)c(OC)c2)ccc1O` gave an IC50 of 24.8 µg/mL (cell growth or viability, MTT; 48 h).
`COc1ccc(NC(=O)NNC(=O)CSc2nc3ccccc3c(=O)n2-c2ccc(Cl)cc2)cc1` has an IC50 of 43.8 µM (cell growth or viability, MTT).
`N#CC(=Cc1ccc(Cl)cc1)C(=O)Nc1nnc(NC(=O)c2ccccc2)s1` gave an IC50 of 17.7 µM (cell growth or viability, MTT; 48 h).
